Published values from different studies.
Lines come from different studies, so protocols differ. ± marks the error that the study gave.
ipgm-1: ipgm-1 (Brugia malayi, UniProt Q4VWF8)
UniProt Q4VWF8, sequence (whole entry, looked up): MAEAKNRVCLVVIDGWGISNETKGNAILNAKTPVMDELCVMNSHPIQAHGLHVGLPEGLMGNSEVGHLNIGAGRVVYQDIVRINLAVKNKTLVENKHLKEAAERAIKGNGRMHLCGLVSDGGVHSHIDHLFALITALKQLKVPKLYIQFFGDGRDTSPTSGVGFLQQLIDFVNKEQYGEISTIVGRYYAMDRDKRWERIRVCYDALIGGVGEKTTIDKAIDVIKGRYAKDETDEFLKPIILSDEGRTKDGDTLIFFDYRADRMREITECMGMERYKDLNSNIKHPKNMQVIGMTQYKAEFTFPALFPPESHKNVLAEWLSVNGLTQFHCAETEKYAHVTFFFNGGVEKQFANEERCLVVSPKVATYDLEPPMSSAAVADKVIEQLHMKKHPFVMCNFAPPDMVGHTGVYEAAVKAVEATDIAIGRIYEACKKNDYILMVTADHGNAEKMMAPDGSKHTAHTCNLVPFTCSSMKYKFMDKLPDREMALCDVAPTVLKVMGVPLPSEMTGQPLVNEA
gpmI: gpmI (Escherichia coli, UniProt P37689)
UniProt P37689, sequence (whole entry, looked up): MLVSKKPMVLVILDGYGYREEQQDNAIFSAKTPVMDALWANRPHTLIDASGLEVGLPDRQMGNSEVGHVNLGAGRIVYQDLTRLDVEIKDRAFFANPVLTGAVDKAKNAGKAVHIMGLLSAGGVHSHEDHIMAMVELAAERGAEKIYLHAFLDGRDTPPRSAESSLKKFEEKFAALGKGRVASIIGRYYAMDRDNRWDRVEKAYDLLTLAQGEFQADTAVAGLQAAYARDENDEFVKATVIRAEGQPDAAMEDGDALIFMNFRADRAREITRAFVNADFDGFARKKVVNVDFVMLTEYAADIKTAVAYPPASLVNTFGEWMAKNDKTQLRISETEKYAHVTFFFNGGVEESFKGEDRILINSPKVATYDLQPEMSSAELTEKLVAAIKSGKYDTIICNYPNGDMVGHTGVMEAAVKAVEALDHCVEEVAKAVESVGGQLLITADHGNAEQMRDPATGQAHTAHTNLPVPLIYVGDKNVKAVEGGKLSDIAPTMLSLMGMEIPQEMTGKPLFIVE
UniProt P23977, sequence (whole entry, looked up): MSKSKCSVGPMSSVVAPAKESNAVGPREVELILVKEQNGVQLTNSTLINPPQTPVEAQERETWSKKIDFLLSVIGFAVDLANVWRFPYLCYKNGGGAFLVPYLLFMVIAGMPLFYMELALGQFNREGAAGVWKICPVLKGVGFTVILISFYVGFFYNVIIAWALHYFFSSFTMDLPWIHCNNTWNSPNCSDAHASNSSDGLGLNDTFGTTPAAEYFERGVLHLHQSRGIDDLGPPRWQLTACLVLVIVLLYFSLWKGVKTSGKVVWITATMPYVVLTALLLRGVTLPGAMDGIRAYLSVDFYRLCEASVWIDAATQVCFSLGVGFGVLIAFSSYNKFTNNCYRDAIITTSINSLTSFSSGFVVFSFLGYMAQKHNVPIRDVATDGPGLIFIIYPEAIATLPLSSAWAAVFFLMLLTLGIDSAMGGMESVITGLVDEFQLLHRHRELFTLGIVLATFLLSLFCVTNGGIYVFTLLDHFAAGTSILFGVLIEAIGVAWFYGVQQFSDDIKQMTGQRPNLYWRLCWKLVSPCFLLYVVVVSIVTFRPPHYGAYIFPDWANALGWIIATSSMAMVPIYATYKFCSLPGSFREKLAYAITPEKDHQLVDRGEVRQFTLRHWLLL
UniProt P50391, sequence (whole entry, looked up): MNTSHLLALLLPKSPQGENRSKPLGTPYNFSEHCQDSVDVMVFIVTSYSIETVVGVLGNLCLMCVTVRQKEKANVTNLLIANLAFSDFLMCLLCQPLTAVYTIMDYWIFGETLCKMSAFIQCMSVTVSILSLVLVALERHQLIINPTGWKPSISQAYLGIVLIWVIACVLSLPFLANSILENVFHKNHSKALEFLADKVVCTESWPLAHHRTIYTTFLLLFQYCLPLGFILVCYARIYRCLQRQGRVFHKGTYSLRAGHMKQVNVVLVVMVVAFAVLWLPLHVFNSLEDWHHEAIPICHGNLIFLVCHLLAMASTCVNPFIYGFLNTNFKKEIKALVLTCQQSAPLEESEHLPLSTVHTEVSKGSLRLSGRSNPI
UniProt P29317, sequence (whole entry, looked up): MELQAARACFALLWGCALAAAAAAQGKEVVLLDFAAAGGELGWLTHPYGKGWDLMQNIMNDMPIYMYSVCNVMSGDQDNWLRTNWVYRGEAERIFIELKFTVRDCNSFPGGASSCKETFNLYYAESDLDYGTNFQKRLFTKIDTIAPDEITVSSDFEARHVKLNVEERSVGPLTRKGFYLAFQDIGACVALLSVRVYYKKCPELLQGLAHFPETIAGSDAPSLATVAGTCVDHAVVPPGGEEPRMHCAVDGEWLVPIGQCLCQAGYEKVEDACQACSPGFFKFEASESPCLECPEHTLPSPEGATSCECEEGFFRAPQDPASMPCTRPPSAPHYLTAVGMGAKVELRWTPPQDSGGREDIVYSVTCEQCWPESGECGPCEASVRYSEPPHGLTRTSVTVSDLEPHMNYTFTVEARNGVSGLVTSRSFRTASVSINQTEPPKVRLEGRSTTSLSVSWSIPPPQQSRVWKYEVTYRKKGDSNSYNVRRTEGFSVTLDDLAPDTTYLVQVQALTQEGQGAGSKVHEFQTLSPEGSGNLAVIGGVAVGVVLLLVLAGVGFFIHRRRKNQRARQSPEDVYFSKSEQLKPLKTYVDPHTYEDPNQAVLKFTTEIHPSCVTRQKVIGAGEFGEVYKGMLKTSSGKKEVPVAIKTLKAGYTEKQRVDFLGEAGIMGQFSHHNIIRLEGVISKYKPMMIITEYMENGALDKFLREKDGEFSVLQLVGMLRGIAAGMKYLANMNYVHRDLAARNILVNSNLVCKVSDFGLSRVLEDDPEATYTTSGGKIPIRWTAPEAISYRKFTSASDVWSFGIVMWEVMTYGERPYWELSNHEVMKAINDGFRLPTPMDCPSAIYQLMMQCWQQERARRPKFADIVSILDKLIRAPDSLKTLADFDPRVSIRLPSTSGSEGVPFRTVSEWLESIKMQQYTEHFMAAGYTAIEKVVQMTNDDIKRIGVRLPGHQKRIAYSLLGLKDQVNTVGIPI
UniProt P48546, sequence (whole entry, looked up): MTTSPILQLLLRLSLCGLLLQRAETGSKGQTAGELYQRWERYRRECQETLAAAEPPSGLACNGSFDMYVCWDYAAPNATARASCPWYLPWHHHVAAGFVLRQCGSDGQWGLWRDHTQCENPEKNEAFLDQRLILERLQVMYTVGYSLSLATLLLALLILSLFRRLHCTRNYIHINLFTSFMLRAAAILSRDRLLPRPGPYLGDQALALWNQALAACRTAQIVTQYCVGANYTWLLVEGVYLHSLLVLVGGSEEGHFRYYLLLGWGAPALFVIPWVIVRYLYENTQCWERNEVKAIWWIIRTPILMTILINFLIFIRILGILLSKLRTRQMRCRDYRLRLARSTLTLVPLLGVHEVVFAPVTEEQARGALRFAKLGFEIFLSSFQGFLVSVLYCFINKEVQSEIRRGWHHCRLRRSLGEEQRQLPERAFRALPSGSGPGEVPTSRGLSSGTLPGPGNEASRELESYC
UniProt P21554, sequence (whole entry, unmodified, looked up): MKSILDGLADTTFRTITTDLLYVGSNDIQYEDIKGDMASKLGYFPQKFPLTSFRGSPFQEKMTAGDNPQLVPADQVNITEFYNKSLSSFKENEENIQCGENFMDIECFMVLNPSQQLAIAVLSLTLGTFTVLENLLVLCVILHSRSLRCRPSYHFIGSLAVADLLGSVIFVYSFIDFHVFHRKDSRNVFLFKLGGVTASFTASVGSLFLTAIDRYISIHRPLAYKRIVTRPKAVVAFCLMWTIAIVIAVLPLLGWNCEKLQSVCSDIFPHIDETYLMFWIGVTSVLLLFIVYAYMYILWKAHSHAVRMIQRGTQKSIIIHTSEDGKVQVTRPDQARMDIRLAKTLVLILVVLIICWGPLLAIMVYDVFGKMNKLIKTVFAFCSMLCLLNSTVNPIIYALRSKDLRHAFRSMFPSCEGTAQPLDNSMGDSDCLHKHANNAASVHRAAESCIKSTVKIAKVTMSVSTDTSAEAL
UniProt P31645, sequence (whole entry, looked up): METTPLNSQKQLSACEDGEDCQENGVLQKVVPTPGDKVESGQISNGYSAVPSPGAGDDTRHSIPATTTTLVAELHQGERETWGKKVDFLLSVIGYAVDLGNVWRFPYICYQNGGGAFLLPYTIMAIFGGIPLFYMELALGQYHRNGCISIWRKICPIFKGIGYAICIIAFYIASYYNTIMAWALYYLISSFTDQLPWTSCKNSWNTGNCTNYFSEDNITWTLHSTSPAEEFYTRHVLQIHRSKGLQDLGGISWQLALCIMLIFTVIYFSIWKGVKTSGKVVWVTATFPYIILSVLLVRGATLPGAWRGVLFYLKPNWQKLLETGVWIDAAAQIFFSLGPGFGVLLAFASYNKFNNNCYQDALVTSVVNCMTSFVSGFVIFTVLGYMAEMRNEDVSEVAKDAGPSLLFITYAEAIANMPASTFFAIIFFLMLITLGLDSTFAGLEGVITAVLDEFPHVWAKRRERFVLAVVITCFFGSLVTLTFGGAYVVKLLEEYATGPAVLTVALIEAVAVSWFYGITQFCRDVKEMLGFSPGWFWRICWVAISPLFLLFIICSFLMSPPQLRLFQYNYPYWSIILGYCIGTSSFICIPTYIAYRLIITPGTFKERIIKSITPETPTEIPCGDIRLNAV
UniProt P41144, sequence (whole entry, looked up): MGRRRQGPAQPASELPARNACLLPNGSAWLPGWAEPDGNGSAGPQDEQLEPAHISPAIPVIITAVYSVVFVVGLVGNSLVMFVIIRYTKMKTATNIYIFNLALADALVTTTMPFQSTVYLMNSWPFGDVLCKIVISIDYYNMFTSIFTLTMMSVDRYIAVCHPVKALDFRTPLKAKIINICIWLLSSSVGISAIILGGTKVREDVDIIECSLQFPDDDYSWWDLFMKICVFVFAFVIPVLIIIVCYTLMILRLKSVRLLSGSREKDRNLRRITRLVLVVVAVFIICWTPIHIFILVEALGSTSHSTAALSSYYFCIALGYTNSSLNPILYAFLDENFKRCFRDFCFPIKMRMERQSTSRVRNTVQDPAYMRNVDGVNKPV

CC(C)[C@@H]1NC(=O)[C@H](CCCNC(=N)N)NC(=O)[C@H](Cc2ccc(O)cc2)NC(=O)[C@H](CO)NC(=O)[C@H](Cc2ccc(O)cc2)N(C)C(=O)[C@H](CC(N)=O)NC(=O)CNC(=O)[C@H](Cc2ccc(O)cc2)N(C)C(=O)[C@H](Cc2ccccc2)N(C)C(=O)[C@H](CC(=O)O)NC(=O)[C@H](Cc2ccc(O)cc2)NC(=O)[C@H](Cc2ccccc2)N(C)C(=O)[C@H](Cc2ccc(O)cc2)N(C)C(=O)[C@H](Cc2ccc(O)cc2)NC(=O)CSC[C@@H](C(N)=O)NC(=O)[C@@H]2CCCN2C1=O — AC50 (ipgm-1; enzyme activity, inhibitor, luminescent coupled-enzyme ATP): 813 nM
CC(C)OC(=O)C(n1cccn1)n1cccn1.F[P-](F)(F)(F)(F)F.[Cu+].c1ccc(P(c2ccccc2)c2ccccc2)cc1 — IC50 (LoVo; cell growth or viability; 3D culture): 20400 nM
Cc1cc(O)cc(C)c1C[C@@H]1NC(=O)[C@H](CCCCN)NC(=O)[C@H](Cc2ccccc2)NC(=O)[C@@H](CCCCNC(=N)N)NC1=O — Kb (Kappa-type opioid receptor (OPRK1, Cavia porcellus, UniProt P41144); antagonist): 25.4 ± 5.1 nM
CC(=O)N[C@@H](CCCNC(=N)N)C(=O)N[C@@H](Cc1ccc(O)cc1)C(=O)N[C@@H](CCCNC(=N)NC(=O)NCCCCN)C(=O)N[C@H](CC(C)C)C(=O)N[C@@H](CCCNC(=N)N)C(=O)N[C@@H](Cc1ccc(O)cc1)C(N)=O — Ki (Neuropeptide Y receptor type 4 (NPY4R, Homo sapiens, UniProt P50391); ligand displacement, radioligand): 248 nM
COc1ccc(C[C@H]2C(=O)N[C@@H](CC(N)=O)C(=O)N[C@@H](CC(=O)O)C(=O)N[C@@H](CO)C(=O)NCC(=O)N[C@@H](Cc3c[nH]c4ccccc34)C(=O)N(C)[C@@H](Cc3ccc(O)cc3)C(=O)N[C@@H](CC(N)=O)C(=O)N[C@@H]([C@@H](C)O)C(=O)N(C)[C@@H](Cc3ccccc3)C(=O)N[C@H](C(N)=O)CSCC(=O)N[C@@H](Cc3ccc(O)cc3)C(=O)N2C)cc1 — AC50 (gpmI; enzyme activity, inhibitor, luminescent coupled-enzyme ATP; 15 min, 37 °C): 6920 nM
CC[N+](C)(C)CCc1c[nH]c2cccc(O)c12 — Ki (Sodium-dependent serotonin transporter (SLC6A4, Homo sapiens, UniProt P31645); ligand displacement, radioligand): 830 nM
CN1C(=O)[C@H](Cc2ccc(O)cc2)NC(=O)CNC(=O)[C@H](Cc2ccc(O)cc2)NC(=O)[C@H](CCC(=O)O)NC(=O)[C@H](Cc2ccc(O)cc2)N(C)C(=O)[C@H](Cc2ccc(O)cc2)N(C)C(=O)[C@H](CCC(N)=O)NC(=O)[C@H](Cc2c[nH]c3ccccc23)NC(=O)[C@H](Cc2ccc(O)cc2)NC(=O)[C@@H](Cc2ccc(O)cc2)NC(=O)CSC[C@@H](C(N)=O)NC(=O)[C@H](CCCCN)NC(=O)[C@@H]1Cc1ccc(O)cc1 — AC50 (gpmI; enzyme activity, inhibitor, luminescent coupled-enzyme ATP; 15 min, 37 °C): 6310 nM
Cc1cc(C)n(C(C(=O)OC(C)C)n2nc(C)cc2C)n1.F[P-](F)(F)(F)(F)F.[Cu+].c1ccc(P(c2ccccc2)c2ccccc2)cc1 — IC50 (LoVo; cell growth or viability; 3D culture): 16600 nM
CC(C)[C@@H]1NC(=O)[C@H](CO)N(C)C(=O)[C@H](Cc2c[nH]c3ccccc23)NC(=O)[C@H](CCC(=O)O)NC(=O)[C@H](CC(=O)O)NC(=O)[C@H](Cc2ccc(O)cc2)N(C)C(=O)[C@H](Cc2ccc(O)cc2)NC(=O)[C@H](Cc2c[nH]c3ccccc23)NC(=O)[C@H](Cc2c[nH]c3ccccc23)NC(=O)[C@H](CC(=O)O)NC(=O)CNC(=O)[C@H](CO)NC(=O)[C@@H](Cc2ccc(O)cc2)NC(=O)CSC[C@@H](C(N)=O)NC(=O)CN(C)C(=O)[C@H](Cc2ccccc2)N(C)C(=O)[C@H](C)NC1=O — AC50 (ipgm-1; enzyme activity, inhibitor, luminescent coupled-enzyme ATP): 13200 nM
CCCCCc1cc(O)c2c(c1)OC(C)(C)C1CCC(C)=CC21 (single isomer, unassigned; (-)) — IC50 (Cytochrome P450 1A2 (CYP1A2, Homo sapiens, UniProt P05177); inhibitor; HEK cell microsomes; 30 min preincubation with NADPH): 1800 ± 550 nM
Cc1cccc(-c2cccc(C)n2)n1.[Cl-].[Cl-].[Ru+2].c1ccc(-c2ccccn2)nc1.c1ccc(-c2ccccn2)nc1 — EC50 (DNA binding, agarose gel electrophoresis; pUC19 plasmid DNA; photoactivated 40 J/cm^2, λ>400 nm, added: pUC19 40 µg/mL): 7800 to 15600 nM
CCC[C@@H](C(=O)c1ccccc1)N1CCCC1 — IC50 (Sodium-dependent dopamine transporter (Slc6a3, Rattus norvegicus, UniProt P23977); transporter uptake, inhibitor, radiometric): 6.9 nM
CCCC[C@H]1C(=O)N2CCC[C@H]2C(=O)N[C@H](C(N)=O)CSCC(=O)N[C@@H](Cc2ccc(O)cc2)C(=O)N(C)[C@@H](Cc2ccc(OC)cc2)C(=O)N[C@@H](CCCNC(=N)N)C(=O)N(C)[C@@H](Cc2ccccc2)C(=O)N[C@@H](CC(=O)O)C(=O)N(C)[C@@H](CO)C(=O)N(C)[C@@H](Cc2ccc(O)cc2)C(=O)N[C@@H](CCC(N)=O)C(=O)N[C@@H](CO)C(=O)N(C)[C@@H](CO)C(=O)N(C)[C@@H](Cc2ccc(OC)cc2)C(=O)N[C@@H](C(C)C)C(=O)N(C)[C@@H](Cc2ccc(O)cc2)C(=O)N1C — AC50 (ipgm-1; enzyme activity, inhibitor, luminescent coupled-enzyme ATP): 6170 nM
CC(=O)N[C@H]1[C@@H](OC[C@H](NC(=O)CNC(=O)[C@@H]2CCCN2C(=O)[C@H](C)NC(=O)[C@@H]2CCCN2C(=O)[C@@H](N)CCCNC(=N)N)C(=O)N[C@H](C(=O)N[C@@H](C)C(=O)N2CCC[C@H]2C(=O)N2CCC[C@H]2C(=O)N[C@@H](C)C(=O)N[C@@H](Cc2c[nH]cn2)C(=O)NCC(=O)O)[C@@H](C)O)O[C@H](CO)[C@H](O)[C@@H]1O — KD ratio (anti-MUC1 Fab 16 A R32G mutant, murine; SPR; baseline: peptide KD over Glyco-S KD): ~1.9 fold
CC[C@H](C)[C@H](NC(=O)[C@H](CO)NC(=O)[C@H](Cc1ccc(O)cc1)NC(=O)[C@H](CC(=O)O)NC(=O)[C@H](CO)NC(=O)[C@@H](NC(=O)[C@H](Cc1ccccc1)NC(=O)[C@@H](NC(=O)CNC(=O)[C@@H](N)CCC(=O)O)[C@@H](C)O)[C@@H](C)CC)C(=O)N[C@@H](C)C(=O)N[C@@H](CCSC)C(=O)N[C@@H](CC(=O)O)C(=O)N[C@@H](CCCCN)C(=O)N[C@H](C(=O)N[C@@H](Cc1c[nH]cn1)C(=O)N[C@@H](CCC(N)=O)C(=O)N[C@@H](CCC(N)=O)C(=O)N[C@@H](CC(=O)O)C(=O)N[C@@H](Cc1ccccc1)C(=O)N[C@H](C(=O)N[C@@H](CC(N)=O)C(=O)N[C@@H](Cc1c[nH]c2ccccc12)C(=O)N[C@@H](CC(C)C)C(=O)N[C@@H](CC(C)C)C(=O)N[C@@H](C)C(=O)N[C@@H](CCC(N)=O)C(=O)N[C@@H](CCCCN)C(N)=O)C(C)C)[C@@H](C)CC — IC50 (Gastric inhibitory polypeptide receptor (GIPR, Homo sapiens, UniProt P48546); ligand displacement in cells, radioligand; pH 7.4): 2.34 nM
CNC(=O)C1CCN(c2ccccc2NC(=O)c2ccc(-c3cc(O)ccc3C)c(C)n2)CC1 — Ki (Ephrin type-A receptor 2 (EPHA2, Homo sapiens, UniProt P29317); cell-free assay, TR-FRET): 0.1 nM
COc1ccc(C[C@H]2C(=O)N(C)[C@@H](Cc3ccc(O)cc3)C(=O)N(C)[C@@H](Cc3ccccc3)C(=O)N[C@@H](CC(N)=O)C(=O)NCC(=O)N(C)[C@@H](Cc3ccc(O)cc3)C(=O)N[C@@H](CC(N)=O)C(=O)N[C@@H](Cc3c[nH]cn3)C(=O)N[C@@H](Cc3ccc(O)cc3)C(=O)N[C@@H](Cc3c[nH]c4ccccc34)C(=O)N[C@H](C(N)=O)CSCC(=O)N[C@H](Cc3ccc(O)cc3)C(=O)N[C@@H](CC(=O)O)C(=O)N[C@@H](CO)C(=O)N[C@@H](Cc3ccc(O)cc3)C(=O)N[C@@H](C)C(=O)N2C)cc1 — AC50 (gpmI; enzyme activity, inhibitor, luminescent coupled-enzyme ATP; 15 min, 37 °C): 117 nM
CCCCCn1cc(C(=O)c2cccc3c2CC(C)(C)C3)c2ccccc21 — EC50 (Cannabinoid receptor 1 (CNR1, Homo sapiens, UniProt P21554, I267L/L193I/L359V); Gαi1 engagement, agonist, BRET): 27.5 nM

A few entries again:
Cc1cccc(-c2cccc(C)n2)n1.[Cl-].[Cl-].[Ru+2].c1ccc(-c2ccccn2)nc1.c1ccc(-c2ccccn2)nc1 — EC50 (DNA binding, agarose gel electrophoresis; pUC19 plasmid DNA; photoactivated 40 J/cm^2, λ>400 nm, added: pUC19 40 µg/mL): 7800 to 15600 nM
CCCCCc1cc(O)c2c(c1)OC(C)(C)C1CCC(C)=CC21 (single isomer, unassigned; (-)) — IC50 (Cytochrome P450 1A2 (CYP1A2, Homo sapiens, UniProt P05177); inhibitor; HEK cell microsomes; 30 min preincubation with NADPH): 1800 ± 550 nM
CC(=O)N[C@H]1[C@@H](OC[C@H](NC(=O)CNC(=O)[C@@H]2CCCN2C(=O)[C@H](C)NC(=O)[C@@H]2CCCN2C(=O)[C@@H](N)CCCNC(=N)N)C(=O)N[C@H](C(=O)N[C@@H](C)C(=O)N2CCC[C@H]2C(=O)N2CCC[C@H]2C(=O)N[C@@H](C)C(=O)N[C@@H](Cc2c[nH]cn2)C(=O)NCC(=O)O)[C@@H](C)O)O[C@H](CO)[C@H](O)[C@@H]1O — KD ratio (anti-MUC1 Fab 16 A R32G mutant, murine; SPR; baseline: peptide KD over Glyco-S KD): ~1.9 fold
